Measured values gathered from unrelated publications.
Numbered parts are unrelated; each lists some results of a single study.

Series 1 — technique: protein-binding microarray; form: double-stranded DNA, one strand shown; medium: in vitro; tested at: 2200 nM top; setting: 60-bp whole probe; added: salmon DNA 0.4 mg/ml; relative to: random background probes; reading: higher = stronger binding; shared flanks, not repeated: GCCTAGCAC … GTCTTGATTCGCTTGACGCTGCTG
Target: Interferon regulatory factor 7, full length, phosphomimetic (IRF7, Homo sapiens, UniProt Q92985, residues 1-503, S471D/S472D/S475D/S476D/S477D/S483D/S484D/S487D)
Residues (chain): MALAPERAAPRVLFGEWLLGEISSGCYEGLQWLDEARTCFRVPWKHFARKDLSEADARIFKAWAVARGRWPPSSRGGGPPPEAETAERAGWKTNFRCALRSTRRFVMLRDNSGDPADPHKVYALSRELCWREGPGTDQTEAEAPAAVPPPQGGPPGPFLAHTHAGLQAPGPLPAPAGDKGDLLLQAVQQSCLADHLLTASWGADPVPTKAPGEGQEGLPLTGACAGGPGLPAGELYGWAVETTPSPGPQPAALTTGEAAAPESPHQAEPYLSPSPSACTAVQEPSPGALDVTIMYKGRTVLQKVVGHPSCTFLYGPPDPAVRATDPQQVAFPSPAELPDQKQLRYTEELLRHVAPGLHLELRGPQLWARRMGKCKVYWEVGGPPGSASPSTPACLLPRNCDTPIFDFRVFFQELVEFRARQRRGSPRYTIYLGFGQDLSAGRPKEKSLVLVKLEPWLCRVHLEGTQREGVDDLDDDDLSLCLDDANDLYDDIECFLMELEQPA
Strand	fitted relative affinity [z-score]
TTATATATCGGGTTTCGATTAGTGCTA	3.13
TCACTAATGTTTTTTAAACTGTGCTAG	0.355
GACGGACTGGGGTTTTGGGACGTGCTA	-0.612
GTTTTTTTCTATATGCAATGGTGCTAG	2.63
TCACCTTTTCTTTACTGACTGTGCTAG	2.29
GACGGTTTCCTTTACCTGACGTGCTAG	2.46
TTAGGTGCCCTTTTCCTTTAGTGCTAG	1.16
GACGGTTTCGGTCTCGGCACGTGCTAG	6.45
GACTAACTGAGTCTCGAGACGTGCTAG	-0.0267
TTAGGTTCCGGTTTCGGTTAGTGCTAG	8.68
TTAGGTTTCGGTTCCGATTAGTGCTAG	10.2
TTGCCAATGCTTCTGGTCTTGTGCTAG	0.456
CCATTTTTCTAGTCCAGACTGTGCTAG	2.42
TTGAGTCTTCTCCTCTAGGTGTGCTAG	0.582
GACGGTTTCGACACTGGGGATGTGCTA	2.85
TTAGGTTTCGGGTTTCGGATAGTGCTA	9.69
GACGGTCTCAGACTGGGGACGTGCTAG	-0.53
TTAGGGTTCCTTTCCCTTTAGTGCTAG	2.67
GACGAACTGGGGTATCGAGTCGTGCTA	0.442

Series 2 — technique: competition protein-binding microarray; form: double-stranded DNA, one strand shown; medium: in vitro; tested at: 2 µM; added: Pho4 competitor, 0.05 µM; reading: higher = stronger binding
Target: Centromere-binding protein 1, full length, His-tagged (CBF1, Saccharomyces cerevisiae, UniProt P17106, residues 1-351)
UniProt P17106, sequence (whole entry, looked up): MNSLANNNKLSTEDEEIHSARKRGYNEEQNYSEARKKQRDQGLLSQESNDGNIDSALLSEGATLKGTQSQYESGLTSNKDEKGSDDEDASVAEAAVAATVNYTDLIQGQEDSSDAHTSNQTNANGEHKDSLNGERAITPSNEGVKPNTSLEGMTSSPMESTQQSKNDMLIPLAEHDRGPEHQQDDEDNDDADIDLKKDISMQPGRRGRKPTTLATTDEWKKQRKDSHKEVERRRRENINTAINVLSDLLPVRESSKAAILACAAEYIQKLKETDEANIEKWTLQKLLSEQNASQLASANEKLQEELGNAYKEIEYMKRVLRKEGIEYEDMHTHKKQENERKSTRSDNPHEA
Setting: whole 60-bp probe, lowest competitor level
Strand	fluorescence intensity
AGGCAGAAACACTGACTCGTGGGTACGTCCACCCAGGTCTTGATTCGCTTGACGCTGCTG	59.6 a.u.
ATTCGTCAATGAAGGCACATGGGGCGGTAGGGTTCGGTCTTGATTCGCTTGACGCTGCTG	107 a.u.
CTTCTGTAAATTTGGCGGGTGGGTGGACGCGCCCCGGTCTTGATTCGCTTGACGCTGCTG	75.5 a.u.
CGTCCTAGTGATTTTCACGTGGTTTCCATGAGGAAGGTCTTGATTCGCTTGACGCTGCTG	921 a.u.
ATTACCATTCTCCGTCACGTGCAAATAAAACCACTCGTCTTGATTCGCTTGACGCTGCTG	9140 a.u.
CTAATTAAACCTTCACACATGCATAACTATAATGCAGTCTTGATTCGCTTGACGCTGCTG	107 a.u.
TCCAGGGGGATACTACACGTGTAAGGGTTGAGTATCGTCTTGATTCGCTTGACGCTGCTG	892 a.u.
CGATGAAATCTTCTTCACGTTCAACTTGTCTGATACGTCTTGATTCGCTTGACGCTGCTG	87 a.u.
ACTCCACCTTTGAAAACGGTGTGAATTCGCCCTTTCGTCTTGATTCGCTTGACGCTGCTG	67.2 a.u.
CTTTCCCGATCTTGGGTAGTGGGTGTAGCACATTTGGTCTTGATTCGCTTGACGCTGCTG	61.6 a.u.
TACACTTCGTATTTGCACGATATGTTTCCCTTTTAAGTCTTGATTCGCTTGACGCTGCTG	79.4 a.u.
CGGGGTTAAGTTTGTCACCTGACTTGCTTGCAGCAGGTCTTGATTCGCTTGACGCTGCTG	1930 a.u.
CCTTGGCTGCCAAGGCCCGTGGTGAGCCATTGACCTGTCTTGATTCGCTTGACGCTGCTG	48.9 a.u.
CTTTCCCGATCTTGGCTAGTGGGTGTAGCACATTTGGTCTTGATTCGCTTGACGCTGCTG	75 a.u.
TAAGTCATTAAGCGTCATGCCAGGTTTTCTTGGAAGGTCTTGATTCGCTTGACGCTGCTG	73.3 a.u.
CTAACGAAGGTTTGACGGGTGGGTGACAAGCCAAGTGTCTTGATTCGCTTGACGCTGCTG	72.6 a.u.
AGACTTACCAGAATCGACATGACAGATAACGACAAGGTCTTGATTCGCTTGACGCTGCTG	86.4 a.u.
GTCTTGTCTCATTGTCACCGCACTTTCCCCACTTCAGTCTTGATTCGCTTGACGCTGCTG	86.6 a.u.
AGCGGCATAAGTCGGCACGTCCCCTGAAAGTAGGCTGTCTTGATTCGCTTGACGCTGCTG	57.6 a.u.

Series 3 — technique: protein binding microarray; form: double-stranded DNA, one strand shown; medium: in vitro; tested at: not given; relative to: not given; reading: higher = stronger binding
Target: Histone acetyltransferase KAT6A, winged helix 2, GST fusion (KAT6A, Homo sapiens, UniProt Q92794, residues 85-181)
Setting: 8-mer, flanks averaged, mean of 2 arrays, mostly near background
Target sequence (chain): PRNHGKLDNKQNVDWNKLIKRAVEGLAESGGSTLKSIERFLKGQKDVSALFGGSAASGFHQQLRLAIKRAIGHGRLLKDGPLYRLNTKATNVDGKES
Strand	E-score
CTCCGATC	0.0882
GGAGACAC	0.015
GACAACCA	-0.0384
CGTGGGCC	0.0892
GAGGAACA	0.0744
CTACGTTA	-0.0264
CGTGATAG	-0.0136
GCGTTAGC	0.118
AACGCTGG	-0.0107
AGAACTCG	0.00133
AGTAGAAA	0.107
CTGCACGC	-0.0416
CACGATAG	-0.086
ACAAATGG	-0.115
GTCGATAA	-0.228
GTTTACCA	0.00951

Series 4 — technique: RNA Bind-n-Seq; form: RNA; medium: in vitro; tested at: 365 nM; relative to: no-protein control; reading: higher = stronger binding
Target: RNA binding protein fox-1 homolog 2, RRM domain, GST-SBP tag (RBFOX2, Homo sapiens, UniProt O43251-10, residues 100-194)
Setting: natural RNA segment, single round, ends assumed
Strand	RBNS enrichment (R)
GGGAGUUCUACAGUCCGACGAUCCUAGACCGUCUCUGCACAAAAGUUUAAAAACUGAACCGUAUGCAGAGUUCCGAAGCAAGUCAAGUUUGUAAAUGCAUACCUAAAAAUAUUUAAUAAACGAUGCAGAAUCCUGGAAUUCUCGGGUGCCAA	0.688
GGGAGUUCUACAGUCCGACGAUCAUUGUCCCCAAGCUCUGGAUUUUUUUCUCUCCAGGACCCAAGUUUUAGGCAGUGAGUAAUGCUUAUAAGCAAAUUACUGAAGGAUUUAAAAAUGGACAGCCAAUGUGUUCUGGAAUUCUCGGGUGCCAA	0.446
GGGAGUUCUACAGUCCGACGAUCUCCACCACAUCUUGAUUCUUGCAGGAGGGAAGAUUUGAUCCCUUAGAGAAAUAGCCUGUGGGACUUGUUAAAGAAGAUAGAUAGUAAGAAAAGCAGCCAUUGCGUGCCCUUGGAAUUCUCGGGUGCCAA	1.11
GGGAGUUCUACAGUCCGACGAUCGGUUAGCCACCUGGUGAUUUUGUCUCUAGUGAAACUGUGUUUGCCGAUAAUCAUCCACAUAGCCACCUCUGUCCUCGCAGUUUGGAUGCCUUUUUUUGACACCUGCGCUAUGGAAUUCUCGGGUGCCAA	0.371
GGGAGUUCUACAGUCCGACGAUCCCACAGUAUGAAAUGGAUGCUUCCUCUGCCACCUGUAUACAGGGGCUUUUACUUUGCACACCUUCAUUGCUUAAGAAGAAACUCAGGGUGCUGAGAAAGAUAUGUAUGCUUGGAAUUCUCGGGUGCCAA	0.954
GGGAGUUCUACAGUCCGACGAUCUUUACAUCAGGAUGCUCACGUGAUUUGUGAAUAUUUUCAUUCCAUCAACAAGGGAGUUUAAUUAUGUGUGAGACUGACACAAACCUUAAUGUAAUUUAGUUAGAAUGCCAUGGAAUUCUCGGGUGCCAA	0.364
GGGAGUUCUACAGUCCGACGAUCCCCCACCUGCCAAAUGGGGAUAAAUAAUCUUACCUACCUCCUGGGGGGAGGGGAAGUUCUGAGAAUGGAGUCAUUCUUAGUGUUCAGGUGCUAAAGGUUGUUCUCCUGGGUGGAAUUCUCGGGUGCCAA	0.568
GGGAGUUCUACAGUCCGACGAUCUCUCAGUGUUUUCUUCAAAACUUCUCCAAGAGAGUCCAGGCUCUCACAUCGUCUUCCUGUGCGACCUAUUAGAGAGAUGAAAAGCCUUUGAAAACAGCUAGCUCUGCAUUUGGAAUUCUCGGGUGCCAA	1.2

Repeated from above (series 3):
Strand	E-score
GGAGACAC	0.015
GACAACCA	-0.0384
CGTGGGCC	0.0892
GAGGAACA	0.0744
CTACGTTA	-0.0264
CGTGATAG	-0.0136
